Measurements gathered from unrelated publications.
A part holds a random share of what one study measured. ± marks the error that the study gave.

Sample 1
Target: C-X-C chemokine receptor type 4 (CXCR4, Homo sapiens, UniProt P61073)
UniProt P61073, sequence (whole entry, looked up): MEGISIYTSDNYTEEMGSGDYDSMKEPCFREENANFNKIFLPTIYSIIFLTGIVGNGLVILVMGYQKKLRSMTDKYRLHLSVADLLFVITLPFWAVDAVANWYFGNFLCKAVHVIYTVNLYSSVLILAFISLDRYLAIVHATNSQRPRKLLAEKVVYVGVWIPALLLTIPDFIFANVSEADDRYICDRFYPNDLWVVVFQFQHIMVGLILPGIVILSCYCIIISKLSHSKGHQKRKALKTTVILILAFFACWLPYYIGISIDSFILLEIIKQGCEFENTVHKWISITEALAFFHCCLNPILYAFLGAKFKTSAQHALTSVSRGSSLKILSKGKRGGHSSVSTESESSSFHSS
Observed: ligand displacement
Technique: radioligand
Compound | IC50
CC(C)C[C@H](NC(=O)[C@H](CO)NC(=O)[C@@H](NC(=O)[C@@H]1CCCN1C(=O)[C@@H](N)CCCCN)C(C)C)C(=O)N[C@@H](CO)C(=O)NCCCC[C@H](NC(=O)[C@@H]1CSSC[C@H](NC(=O)[C@H](Cc2ccc3ccccc3c2)NC(=O)[C@H](CCCNC(=N)N)NC(=O)[C@@H](N)CCCNC(=N)N)C(=O)N[C@@H](Cc2ccc(O)cc2)C(=O)N[C@@H](CCCNC(=N)N)C(=O)N[C@@H](CCCCN)C(=O)N[C@H](CCCCN)C(=O)N2CCC[C@H]2C(=O)N[C@@H](Cc2ccc(O)cc2)C(=O)N[C@@H](CCCNC(=N)N)C(=O)N[C@@H](CCCNC(=N)N)C(=O)N1)C(=O)O | 28.3 nM
CC(C)C[C@H](NC(=O)[C@H](CO)NC(=O)[C@@H](NC(=O)[C@@H]1CCCN1C(=O)[C@@H](N)CCCCN)C(C)C)C(=O)N[C@@H](CO)C(=O)N[C@@H](Cc1ccc(O)cc1)C(=O)N[C@@H](CCCNC(=N)N)C(=O)N[C@@H](CO)C(=O)NCCCC[C@H](NC(=O)[C@@H]1CSSC[C@H](NC(=O)[C@H](Cc2ccc3ccccc3c2)NC(=O)[C@H](CCCNC(=N)N)NC(=O)[C@@H](N)CCCNC(=N)N)C(=O)N[C@@H](Cc2ccc(O)cc2)C(=O)N[C@@H](CCCNC(=N)N)C(=O)N[C@@H](CCCCN)C(=O)N[C@H](CCCCN)C(=O)N2CCC[C@H]2C(=O)N[C@@H](Cc2ccc(O)cc2)C(=O)N[C@@H](CCCNC(=N)N)C(=O)N[C@@H](CCCNC(=N)N)C(=O)N1)C(=O)O | 5.67 nM
CC(C)C[C@H](NC(=O)[C@H](CO)NC(=O)[C@@H](NC(=O)[C@@H]1CCCN1C(=O)[C@@H](N)CCCCN)C(C)C)C(=O)N[C@@H](CO)C(=O)N[C@@H](Cc1ccc(O)cc1)C(=O)N[C@@H](CCCNC(=N)N)C(=O)N[C@@H](CO)C(=O)NCCCC[C@H](NC(=O)[C@@H]1CSSC[C@H](NC(=O)[C@H](Cc2ccc3ccccc3c2)NC(=O)[C@H](CCCNC(=N)N)NC(=O)[C@@H](N)CCCNC(=N)N)C(=O)N[C@@H](Cc2ccc(O)cc2)C(=O)N[C@@H](CCCNC(=N)N)C(=O)N[C@@H](CCCCN)C(=O)N[C@H](CCCCN)C(=O)N2CCC[C@H]2C(=O)N[C@@H](Cc2ccc(O)cc2)C(=O)N[C@@H](CCCNC(=N)N)C(=O)N[C@@H](CCCNC(N)=O)C(=O)N1)C(=O)O | 21.2 nM
CC(C)C[C@H](NC(=O)[C@H](CO)NC(=O)[C@@H](NC(=O)[C@@H]1CCCN1C(=O)[C@@H](N)CCCCN)C(C)C)C(=O)N[C@@H](CO)C(=O)N[C@@H](Cc1ccc(O)cc1)C(=O)N[C@@H](CCCNC(=N)N)C(=O)N[C@@H](CO)C(=O)N[C@@H](C)C(=O)NCCCC[C@H](NC(=O)[C@@H]1CSSC[C@H](NC(=O)[C@H](Cc2ccc3ccccc3c2)NC(=O)[C@H](CCCNC(=N)N)NC(=O)[C@@H](N)CCCNC(=N)N)C(=O)N[C@@H](Cc2ccc(O)cc2)C(=O)N[C@@H](CCCNC(=N)N)C(=O)N[C@@H](CCCCN)C(=O)N[C@H](CCCCN)C(=O)N2CCC[C@H]2C(=O)N[C@@H](Cc2ccc(O)cc2)C(=O)N[C@@H](CCCNC(=N)N)C(=O)N[C@@H](CCCNC(=N)N)C(=O)N1)C(=O)O | 24.9 nM

Mixed results
SMILES | tested on | test | test system | conditions | endpoint | result
O=C(O)COc1ccc(Br)cc1/C=N/NC(=O)CNc1ccc(Cl)cc1 |  |  | mice, PTZ-induced seizures | oral, 20 mg/kg, 24 h after PTZ | mortality | 50%
CC(C)(C)C(=O)NC(C(=O)NO)c1ccc(-c2cc(F)c(F)c(F)c2)cc1 (stereo not shown) | aminopeptidase N2 (Toxoplasma gondii, UniProt S8G5K8, N1303Q/N840Q) |  |  |  | Ki | 44.9 µM
Cc1ccc(C(=O)N/N=C/c2cc(Br)ccc2OCC(=O)O)cc1 |  |  | male mice, pilocarpine-induced seizures | oral, 20 mg/kg, 24 h, dosed 30 min before pilocarpine, together with: pilocarpine 300 mg/kg i.p. | survival | 70%
N=C(N)N[C@@H]1C[C@@H](C(=O)N[C@@H](Cc2ccc(O)cc2)C(N)=O)N(C(=O)CN(CCNC(=O)[C@H](CCCCNC(=O)c2cnccn2)NC(=O)[C@H](CCCCNC(=O)[C@H]2C[C@@H](N)CN2C(=O)CN(CCNC(=O)CN(CCN)C(=O)Cn2cnc3c(=O)[nH]c(N)nc32)C(=O)Cn2cnc3c(=O)[nH]c(N)nc32)NC(=O)[C@H]2C[C@@H](N)CN2C(=O)CN(CCNC(=O)CN(CCN)C(=O)Cn2cnc3c(=O)[nH]c(N)nc32)C(=O)Cn2cnc3c(=O)[nH]c(N)nc32)C(=O)Cn2cnc3c(=O)[nH]c(N)nc32)C1 | HIV-1 RRE IIB RNA | binding, 2-aminopurine fluorescence displacement |  | pH 7.0 | Kd | 880 ± 20 nM
O=C(O)COc1ccc(Br)cc1C=NNC(=O)Cc1ccccc1 (mixture of isomers) |  | measured: ALP | mouse, serum | oral, 100 mg/kg, 48 h, safety assessment | serum enzyme activity | 127 ± 11.8 IU/L
O=C(O)COc1ccccc1/C=N/NC(=O)CNc1ccc(Cl)cc1 |  |  | male mice, pilocarpine-induced seizures | oral, 20 mg/kg, 24 h, dosed 30 min before pilocarpine, together with: pilocarpine 300 mg/kg i.p. | survival | 70%

Excerpt of the above (sample 1):
Compound | IC50
CC(C)C[C@H](NC(=O)[C@H](CO)NC(=O)[C@@H](NC(=O)[C@@H]1CCCN1C(=O)[C@@H](N)CCCCN)C(C)C)C(=O)N[C@@H](CO)C(=O)N[C@@H](Cc1ccc(O)cc1)C(=O)N[C@@H](CCCNC(=N)N)C(=O)N[C@@H](CO)C(=O)NCCCC[C@H](NC(=O)[C@@H]1CSSC[C@H](NC(=O)[C@H](Cc2ccc3ccccc3c2)NC(=O)[C@H](CCCNC(=N)N)NC(=O)[C@@H](N)CCCNC(=N)N)C(=O)N[C@@H](Cc2ccc(O)cc2)C(=O)N[C@@H](CCCNC(=N)N)C(=O)N[C@@H](CCCCN)C(=O)N[C@H](CCCCN)C(=O)N2CCC[C@H]2C(=O)N[C@@H](Cc2ccc(O)cc2)C(=O)N[C@@H](CCCNC(=N)N)C(=O)N[C@@H](CCCNC(N)=O)C(=O)N1)C(=O)O | 21.2 nM
